Measured values of several laboratories.
Protocols differ between the studies behind these lines.
Cell line: Caco-2

With `CC1(C)OC2C(COP(=O)(O)O)OC(n3cnc4c(=O)[nH]c(NC(=O)c5ccccc5)nc43)C2O1` (centres unmarked) the IC50 was greater than 100 µM (cell growth or viability).
For `F[P-](F)(F)(F)(F)F.OCP(CO)CO.OCP(CO)CO.OCP(CO)CO.OCP(CO)CO.[Cu+]`, the IC50 was 0.48 µM (cell growth or viability, MTT; 72 h).
For `N=C(N)NCCC[C@H](NC(=O)[C@H](Cc1c[nH]c2ccccc12)NC(=O)[C@H](CCC(N)=O)NC(=O)[C@H](Cc1c[nH]c2ccccc12)NC(=O)[C@H](CCCN)NC(=O)[C@H](Cc1c[nH]c2ccccc12)NC(=O)[C@H](CCC(N)=O)NC(=O)[C@H](Cc1c[nH]c2ccccc12)NC(=O)[C@@H](N)CCCNC(=N)N)C(N)=O`, the IC50 was 64 µM (cell growth or viability, MTT).
`O=C(Nc1nc2c(ncn2C2OC(COP(=O)(O)O)C(O)C2O)c(=O)[nH]1)c1ccccc1` (centres unmarked) gave an IC50 of greater than 100 µM (cell growth or viability).
`COC(=O)C1CN1S(=O)(=O)c1c(C)cc(C)cc1C` (centres unmarked) gave an IC50 of 10 µM (cell growth or viability, MTT; 48 h).
`N=C(N)NCCC[C@H](NC(=O)[C@H](Cc1c[nH]c2ccccc12)NC(=O)[C@H](CCC(N)=O)NC(=O)[C@H](Cc1c[nH]c2ccccc12)NC(=O)[C@H](CCCNC(=N)N)NC(=O)[C@H](Cc1c[nH]c2ccccc12)NC(=O)[C@H](CCC(N)=O)NC(=O)[C@H](Cc1c[nH]c2ccccc12)NC(=O)[C@H](CCCNC(=N)N)NC(=O)CCCCCNC(=O)CCCC[C@@H]1SC[C@@H]2NC(=O)N[C@@H]21)C(N)=O` gave an IC50 of greater than 110 µM (cell growth or viability, MTT).
The IC50 of `CC(C)C[C@H](NC(=O)[C@H](C)NC(=O)[C@H](C)NC(=O)[C@H](CCC(N)=O)NC(=O)[C@H](C)NC(=O)[C@H](CO)NC(=O)[C@H](CC(C)C)NC(=O)[C@H](C)NC(=O)[C@@H](NC(=O)[C@H](C)NC(=O)[C@H](Cc1ccc(O)cc1)NC(=O)[C@H](CO)NC(=O)[C@H](CCCCN)NC(=O)[C@H](C)NC(=O)[C@H](Cc1ccccc1)NC(=O)[C@H](CCCCN)NC(=O)[C@H](C)NC(=O)[C@H](Cc1ccccc1)NC(=O)[C@H](CCCCN)NC(=O)[C@H](CCCCN)NC(=O)[C@H](C)NC(=O)[C@H](Cc1ccccc1)NC(=O)[C@H](CCCCN)NC(=O)[C@H](C)NC(=O)[C@H](Cc1ccccc1)NC(=O)[C@H](CCCCN)NC(=O)[C@H](CCCCN)NC(=O)[C@H](C)NC(=O)[C@H](Cc1ccccc1)NC(=O)[C@H](CCCCN)NC(=O)[C@H](C)NC(=O)[C@H](Cc1ccccc1)NC(=O)[C@@H](N)CCCCN)C(C)C)C(=O)N[C@@H](C)C(=O)N[C@@H](CCCNC(=N)N)C(=O)N[C@@H](CCCNC(=N)N)C(=O)O` is reported as 52.2 µM (viable cell number, MTS; 6 h).
`CCCCc1ccc(S(=O)(=O)N2CC2C(=O)OC)cc1` (centres unmarked) has an IC50 of 202 µM (cell growth or viability, MTT; 48 h).

For quick reference, copied from above:
`COC(=O)C1CN1S(=O)(=O)c1c(C)cc(C)cc1C` (centres unmarked) gave an IC50 of 10 µM (cell growth or viability, MTT; 48 h).
